Measured values collected from several papers.
Parts stem from different laboratories: compare values within a part only. Positions count from the first letter of the parent shown.
Chain of UniProt P11362 (whole entry, looked up): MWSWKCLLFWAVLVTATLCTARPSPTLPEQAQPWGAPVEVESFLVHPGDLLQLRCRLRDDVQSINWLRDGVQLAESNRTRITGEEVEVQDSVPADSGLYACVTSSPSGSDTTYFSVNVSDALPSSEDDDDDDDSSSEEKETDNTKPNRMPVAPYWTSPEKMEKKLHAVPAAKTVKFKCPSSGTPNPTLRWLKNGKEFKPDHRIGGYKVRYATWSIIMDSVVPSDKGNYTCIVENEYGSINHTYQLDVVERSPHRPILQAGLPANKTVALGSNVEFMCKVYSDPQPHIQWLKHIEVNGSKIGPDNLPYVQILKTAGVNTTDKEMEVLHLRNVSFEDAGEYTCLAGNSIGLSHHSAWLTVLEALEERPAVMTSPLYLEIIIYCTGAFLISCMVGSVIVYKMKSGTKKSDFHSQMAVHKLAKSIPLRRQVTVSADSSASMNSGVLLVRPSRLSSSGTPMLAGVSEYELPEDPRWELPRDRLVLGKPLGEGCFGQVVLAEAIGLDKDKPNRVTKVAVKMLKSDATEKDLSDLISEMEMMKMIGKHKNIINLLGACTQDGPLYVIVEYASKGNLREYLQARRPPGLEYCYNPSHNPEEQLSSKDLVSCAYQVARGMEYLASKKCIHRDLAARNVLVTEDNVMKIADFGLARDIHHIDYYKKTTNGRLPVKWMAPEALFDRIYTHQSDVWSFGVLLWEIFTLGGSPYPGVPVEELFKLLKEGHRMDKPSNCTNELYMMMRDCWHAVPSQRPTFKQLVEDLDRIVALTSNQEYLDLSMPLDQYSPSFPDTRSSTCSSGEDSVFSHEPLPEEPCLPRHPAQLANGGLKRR
Chain of UniProt Q9BQI3 (whole entry, looked up): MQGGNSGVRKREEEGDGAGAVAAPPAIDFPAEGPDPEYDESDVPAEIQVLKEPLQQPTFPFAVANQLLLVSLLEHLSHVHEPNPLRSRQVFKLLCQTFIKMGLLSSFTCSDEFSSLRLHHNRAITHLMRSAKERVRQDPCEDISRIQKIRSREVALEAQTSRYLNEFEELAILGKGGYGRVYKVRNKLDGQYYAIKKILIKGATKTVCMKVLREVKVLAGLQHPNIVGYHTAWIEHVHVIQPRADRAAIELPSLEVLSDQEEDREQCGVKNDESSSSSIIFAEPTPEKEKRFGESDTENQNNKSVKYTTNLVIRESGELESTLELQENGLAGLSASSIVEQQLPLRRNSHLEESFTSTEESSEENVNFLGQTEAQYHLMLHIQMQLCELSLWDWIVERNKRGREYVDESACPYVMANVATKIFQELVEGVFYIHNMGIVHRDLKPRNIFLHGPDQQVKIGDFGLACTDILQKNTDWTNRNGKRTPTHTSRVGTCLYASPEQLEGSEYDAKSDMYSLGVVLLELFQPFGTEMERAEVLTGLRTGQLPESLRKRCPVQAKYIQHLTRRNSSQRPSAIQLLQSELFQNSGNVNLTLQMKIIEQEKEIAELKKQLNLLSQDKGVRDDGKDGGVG
Chain of UniProt Q6PHR2 (whole entry, looked up): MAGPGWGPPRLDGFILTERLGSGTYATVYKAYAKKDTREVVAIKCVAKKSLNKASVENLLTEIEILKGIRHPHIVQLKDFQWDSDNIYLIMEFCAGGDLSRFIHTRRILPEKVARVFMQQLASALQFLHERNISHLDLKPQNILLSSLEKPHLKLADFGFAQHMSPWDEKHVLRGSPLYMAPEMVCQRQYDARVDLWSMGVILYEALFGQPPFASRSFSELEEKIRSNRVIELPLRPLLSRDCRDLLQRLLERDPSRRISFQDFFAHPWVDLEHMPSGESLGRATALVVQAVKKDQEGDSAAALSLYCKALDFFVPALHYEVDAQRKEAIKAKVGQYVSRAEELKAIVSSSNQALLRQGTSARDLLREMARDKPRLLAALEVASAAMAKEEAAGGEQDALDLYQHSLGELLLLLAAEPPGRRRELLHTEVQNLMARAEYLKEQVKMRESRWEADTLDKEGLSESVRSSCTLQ
Chain of UniProt P49137 (whole entry, looked up): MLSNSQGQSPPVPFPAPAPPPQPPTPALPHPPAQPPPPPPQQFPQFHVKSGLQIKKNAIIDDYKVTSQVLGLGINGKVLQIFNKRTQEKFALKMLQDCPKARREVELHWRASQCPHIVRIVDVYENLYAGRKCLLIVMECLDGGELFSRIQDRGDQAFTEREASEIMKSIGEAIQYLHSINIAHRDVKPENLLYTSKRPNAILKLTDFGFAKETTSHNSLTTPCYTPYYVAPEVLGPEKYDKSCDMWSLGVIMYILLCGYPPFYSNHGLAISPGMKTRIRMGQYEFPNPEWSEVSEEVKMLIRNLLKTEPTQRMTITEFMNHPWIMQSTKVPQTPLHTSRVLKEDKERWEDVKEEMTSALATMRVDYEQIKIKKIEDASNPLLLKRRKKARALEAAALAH
Chain of UniProt P52333 (whole entry, looked up): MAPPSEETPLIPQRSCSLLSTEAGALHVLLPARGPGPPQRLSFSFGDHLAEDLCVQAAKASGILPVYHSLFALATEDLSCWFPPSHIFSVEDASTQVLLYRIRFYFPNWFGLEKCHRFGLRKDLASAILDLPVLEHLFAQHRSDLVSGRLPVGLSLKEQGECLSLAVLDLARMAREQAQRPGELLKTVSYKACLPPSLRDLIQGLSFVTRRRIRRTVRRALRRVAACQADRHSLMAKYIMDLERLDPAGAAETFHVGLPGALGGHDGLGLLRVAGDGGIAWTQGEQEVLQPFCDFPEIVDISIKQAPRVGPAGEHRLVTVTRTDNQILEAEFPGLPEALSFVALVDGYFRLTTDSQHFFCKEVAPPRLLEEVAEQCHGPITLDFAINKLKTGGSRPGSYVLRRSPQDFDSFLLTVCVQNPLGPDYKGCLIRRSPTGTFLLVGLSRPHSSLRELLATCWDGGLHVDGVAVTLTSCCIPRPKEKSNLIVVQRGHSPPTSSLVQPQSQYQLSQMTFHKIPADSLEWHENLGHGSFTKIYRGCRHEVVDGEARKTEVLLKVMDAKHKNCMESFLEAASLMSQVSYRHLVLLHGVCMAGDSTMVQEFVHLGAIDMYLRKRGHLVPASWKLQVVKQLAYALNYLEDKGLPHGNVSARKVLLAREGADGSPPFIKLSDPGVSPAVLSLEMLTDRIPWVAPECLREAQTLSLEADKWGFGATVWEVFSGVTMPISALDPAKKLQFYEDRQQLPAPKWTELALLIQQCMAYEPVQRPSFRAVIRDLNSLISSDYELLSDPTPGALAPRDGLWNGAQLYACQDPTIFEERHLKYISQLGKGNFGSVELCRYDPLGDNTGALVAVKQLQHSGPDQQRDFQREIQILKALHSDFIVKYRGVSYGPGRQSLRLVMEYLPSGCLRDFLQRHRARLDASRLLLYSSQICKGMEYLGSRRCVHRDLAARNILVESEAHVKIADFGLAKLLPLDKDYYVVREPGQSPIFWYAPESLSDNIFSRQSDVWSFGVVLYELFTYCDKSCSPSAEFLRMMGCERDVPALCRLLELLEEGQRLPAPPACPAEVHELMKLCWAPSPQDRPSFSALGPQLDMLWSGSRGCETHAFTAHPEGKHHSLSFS
Chain of UniProt P42684 (whole entry, looked up): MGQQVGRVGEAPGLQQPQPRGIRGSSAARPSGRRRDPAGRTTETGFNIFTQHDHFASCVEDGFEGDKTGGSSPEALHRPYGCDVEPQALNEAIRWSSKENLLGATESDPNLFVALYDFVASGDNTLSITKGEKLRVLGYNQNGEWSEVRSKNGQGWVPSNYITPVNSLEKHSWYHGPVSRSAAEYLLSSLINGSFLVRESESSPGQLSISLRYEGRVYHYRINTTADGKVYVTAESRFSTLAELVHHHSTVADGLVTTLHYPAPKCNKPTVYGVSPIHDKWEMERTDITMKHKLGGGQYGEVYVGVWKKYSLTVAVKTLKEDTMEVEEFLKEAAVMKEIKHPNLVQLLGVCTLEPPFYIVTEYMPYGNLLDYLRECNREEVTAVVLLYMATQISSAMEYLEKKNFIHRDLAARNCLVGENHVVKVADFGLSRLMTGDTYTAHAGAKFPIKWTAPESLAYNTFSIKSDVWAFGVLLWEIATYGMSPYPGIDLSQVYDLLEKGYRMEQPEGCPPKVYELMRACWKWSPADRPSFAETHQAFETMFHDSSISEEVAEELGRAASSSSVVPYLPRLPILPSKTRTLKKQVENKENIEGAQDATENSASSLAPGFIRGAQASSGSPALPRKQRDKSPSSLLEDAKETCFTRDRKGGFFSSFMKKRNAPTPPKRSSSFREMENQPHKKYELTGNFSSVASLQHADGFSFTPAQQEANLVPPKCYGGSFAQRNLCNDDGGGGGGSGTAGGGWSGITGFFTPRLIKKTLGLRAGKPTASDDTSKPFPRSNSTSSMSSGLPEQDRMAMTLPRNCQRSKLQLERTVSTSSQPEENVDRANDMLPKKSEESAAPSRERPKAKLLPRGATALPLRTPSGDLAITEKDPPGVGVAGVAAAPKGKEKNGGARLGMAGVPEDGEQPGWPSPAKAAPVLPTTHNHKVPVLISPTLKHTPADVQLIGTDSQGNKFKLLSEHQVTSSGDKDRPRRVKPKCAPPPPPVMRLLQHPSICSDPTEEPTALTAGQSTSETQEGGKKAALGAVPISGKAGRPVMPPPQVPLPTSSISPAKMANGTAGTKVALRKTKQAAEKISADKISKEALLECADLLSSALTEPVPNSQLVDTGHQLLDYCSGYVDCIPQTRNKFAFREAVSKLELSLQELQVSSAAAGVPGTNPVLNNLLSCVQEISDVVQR

Block 1 — method: DHFR PCA, deep sequencing; medium: yeast; together with: (+)-ABA 0 µM; baseline: wild-type fitted maximum; direction: higher = stronger binding; quantity: relative binding score
Target: ABI1, truncated, D143A, DHFR fusion (Arabidopsis thaliana)
Setting: methotrexate growth selection, single substitutions
Parent: PYL1, truncated, DHFR fusion (Arabidopsis thaliana); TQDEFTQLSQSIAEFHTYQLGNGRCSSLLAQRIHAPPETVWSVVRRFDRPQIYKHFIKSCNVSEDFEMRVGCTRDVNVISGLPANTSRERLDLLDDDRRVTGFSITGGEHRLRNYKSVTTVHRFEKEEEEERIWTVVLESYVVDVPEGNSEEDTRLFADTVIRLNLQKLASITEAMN; partner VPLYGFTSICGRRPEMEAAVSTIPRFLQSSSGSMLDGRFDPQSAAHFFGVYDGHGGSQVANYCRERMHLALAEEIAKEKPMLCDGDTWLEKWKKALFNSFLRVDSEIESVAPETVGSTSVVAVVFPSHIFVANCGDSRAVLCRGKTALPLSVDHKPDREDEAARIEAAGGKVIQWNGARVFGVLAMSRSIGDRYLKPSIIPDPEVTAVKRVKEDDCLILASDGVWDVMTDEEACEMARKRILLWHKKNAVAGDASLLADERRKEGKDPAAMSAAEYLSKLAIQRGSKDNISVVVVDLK
F103V: -2.7%
I12W: -0.708%
E127Y: 15.2%
S27P: 2.79%
G23K: 9.4%
D153Y: -4.77%
I105W: 3.69%
E38C: 0.178%

Block 2 — read-out: enzyme activity; mode: inhibitor; tested at: 0.5 µM; baseline: control; quantity: remaining activity
Compound: Cc1cn(-c2cc(NC(=O)c3ccc(C)c(Nc4nccc(-c5cccnc5)n4)c3)cc(C(F)(F)F)c2)cn1
Angiopoietin-1 receptor (TEK, Homo sapiens, UniProt Q02763): 102%
Dual specificity mitogen-activated protein kinase kinase 2 (MAP2K2, Homo sapiens, UniProt P36507): 93.2%
Serine/threonine-protein kinase ULK3 (ULK3, Homo sapiens, UniProt Q6PHR2): 108%
Fibroblast growth factor receptor 3 (FGFR3, Homo sapiens, UniProt P22607): 103%
Macrophage-stimulating protein receptor (MST1R, Homo sapiens, UniProt Q04912): 94%
Fibroblast growth factor receptor 1 (FGFR1, Homo sapiens, UniProt P11362): 99.6%
Activin receptor type-1B (ACVR1B, Homo sapiens, UniProt P36896): 103%
MAP kinase-activated protein kinase 2 (MAPKAPK2, Homo sapiens, UniProt P49137): 94.2%
Tyrosine-protein kinase FRK (FRK, Homo sapiens, UniProt P42685): 16.2%
Tyrosine-protein kinase ABL2 (ABL2, Homo sapiens, UniProt P42684): 4.86%
Tyrosine-protein kinase JAK3 (JAK3, Homo sapiens, UniProt P52333): 94.2%
Mitogen-activated protein kinase kinase kinase 5 (MAP3K5, Homo sapiens, UniProt Q99683): 105%

Block 3 — method: protein binding microarray; form: double-stranded DNA, one strand shown; medium: in vitro; tested at: not given; baseline: not given; direction: higher = stronger binding; quantity: E-score
Target: Histone acetyltransferase KAT6A, winged helix 1, GST fusion (KAT6A, Homo sapiens, UniProt Q92794, residues 1-85)
Setting: 8-mer, flanks averaged, mean of 2 arrays, mostly near background
Target sequence (chain): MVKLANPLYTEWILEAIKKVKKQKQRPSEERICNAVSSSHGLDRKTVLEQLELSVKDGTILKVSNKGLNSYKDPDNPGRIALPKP
CACTTGGC: -0.0269
GTCTCATA: -0.128
AAGACGGT: -0.123
GTACTAGA: -0.0978
AGTGTAAA: -0.0707
GATCTGCA: -0.236
CATGGTTA: -0.048
ATGCTTAG: -0.0387

Block 4 — read-out: cell-free assay; method: competition with immobilised ligand; tested at: 1 µM; quantity: remaining binding
Structure (SMILES): CCC(=O)N[C@@H]1CC[C@H](C(=O)N(C)c2ccc(-c3nc4ccccc4o3)cc2)C1
Eukaryotic translation initiation factor 2-alpha kinase 1 (EIF2AK1, Homo sapiens, UniProt Q9BQI3): 88%
Receptor-type tyrosine-protein kinase FLT3 (FLT3, Homo sapiens, UniProt P36888, D835V/ITD): 94%
Serine/threonine-protein kinase OSR1 (OXSR1, Homo sapiens, UniProt O95747): 100%
Mitogen-activated protein kinase kinase kinase kinase 1 (MAP4K1, Homo sapiens, UniProt Q92918): 100%

A few entries again (block 3):
AAGACGGT: -0.123
GTACTAGA: -0.0978
AGTGTAAA: -0.0707
